Measured values from different studies.
Numbered parts are unrelated; each lists some results of a single study.

Sample 1
Target: Protein C-ets-1 (ETS1, Homo sapiens, UniProt P14921, residues 1-441, full length assumed)
Technique: protein-binding microarray
Molecule type: double-stranded DNA, one strand shown
Matrix: in vitro
Tested at: not given
Notes: k-mer, scored over probes, only values ≥0.25
Direction: higher = stronger binding
Residues (chain): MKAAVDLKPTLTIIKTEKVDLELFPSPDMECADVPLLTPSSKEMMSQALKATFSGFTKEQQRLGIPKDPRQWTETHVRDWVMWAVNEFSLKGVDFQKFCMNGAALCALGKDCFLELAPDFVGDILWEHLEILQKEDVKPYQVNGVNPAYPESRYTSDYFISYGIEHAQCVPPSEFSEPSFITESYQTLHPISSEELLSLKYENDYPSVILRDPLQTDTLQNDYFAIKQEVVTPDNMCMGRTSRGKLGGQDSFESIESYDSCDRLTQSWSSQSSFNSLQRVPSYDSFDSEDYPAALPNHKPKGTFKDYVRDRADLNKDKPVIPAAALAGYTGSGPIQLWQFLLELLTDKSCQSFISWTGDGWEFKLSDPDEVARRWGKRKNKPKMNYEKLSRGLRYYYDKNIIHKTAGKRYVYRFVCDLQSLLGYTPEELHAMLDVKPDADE
Strand	E-score
CGGCAGGA	0.303
CCGGATAC	0.477
GGATACGA	0.265
CGGATGGA	0.445
TAGAGGAA	0.285
GGAAGACC	0.259
ATCCGGTA	0.475
ACGGCGGA	0.365

Sample 2
Target: RNA binding protein fox-1 homolog 2, RRM domain, GST-SBP tag (RBFOX2, Homo sapiens, UniProt O43251-10, residues 100-194)
Technique: RNA Bind-n-Seq
Molecule type: RNA
Matrix: in vitro
Tested at: 365 nM
Notes: natural RNA segment, single round, ends assumed
Relative to: no-protein control
Direction: higher = stronger binding
Target sequence (chain): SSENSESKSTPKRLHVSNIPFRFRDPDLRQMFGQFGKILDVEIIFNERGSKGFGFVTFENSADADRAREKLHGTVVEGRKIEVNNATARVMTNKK
Strand	RBNS enrichment (R)
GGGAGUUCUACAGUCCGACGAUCAGUGUCAAAGCAGCUUGUGUUGGGGCGUGUGGGACUUGAGGAUUGGGGAUUGACAGGUUUCAUCAUCGGAUAGACAUUUGGUUAUCCAGAGAGAAUUGGUAAUUUGCCAGUGGAAUUCUCGGGUGCCAA	1.27
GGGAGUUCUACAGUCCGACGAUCUAUCCUCCUGGCCCCACCCUGCCCCUUCUUUUUGGUUUUGACAUCAUUCAUUUCCACCUGGGAAUUUCUGGUGCCAUGCCAGAAAGAAUGAGGAACCUGUAUUCCUCUUCUGGAAUUCUCGGGUGCCAA	0.516
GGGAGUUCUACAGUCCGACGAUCUUUCAGUUUUCAUUUCGACAAACAAGCACUGUAAUUAUAGCUAUUAGAAUAAAAUCUCUUAACUAUUUCACCGGCUCUCCAGUGCUUCCACACAGGCAUGCUGCCCCCAGUGGAAUUCUCGGGUGCCAA	0.664
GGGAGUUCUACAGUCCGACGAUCCAGCUAUCCUCCAGGUGGCUAGGGACAGUCUAUUCUGCUGCAACUGGAAAGUAGAGGGAACCGGCACUGCUCAGAGCAGAUGGCGGCUUCUGGAGGCACACAGUGGGAGUUGGAAUUCUCGGGUGCCAA	0.405
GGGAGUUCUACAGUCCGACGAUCAUACUAAGCAAUAACUUUACGAUCAACAGAAGAAAUUUUAAAACAGAGUCUCCUUUUCCCAUCCUUGGUGCAGACUGUGCCUGCCUGGACUCCGUAGAAAGCACUGGAUUUGGAAUUCUCGGGUGCCAA	0.711
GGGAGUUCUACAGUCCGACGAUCCUGCGGCCCCAAAGCCCCUGGGCUUGGCUGUUUGAGGCAGAGGUGAUGGACUCCGGGGGCCUGACACUUGGGAUUUGGGAGGCUUCCUAGAGCGCUCAGCAGGUGAAGGCUGGAAUUCUCGGGUGCCAA	0.65
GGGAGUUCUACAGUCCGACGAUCGUUUAUUUUAGACUUUCAAGGAAACAAAAGACUUUAGAGUCCUCUCUCUGUAAUUCUGCCCCACUCAUUUGUUUACCCUGGGUUUUAUACAGUUCUCUUCCUUCUCCCCUUGGAAUUCUCGGGUGCCAA	0.705
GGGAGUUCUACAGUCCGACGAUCUAUGGACCAUCUUCAAACUGCUGGAUCCCCUGUAUAUGUUGAAUGAUGCCUGGUGGUCUUACAGCAUCACUGGCACACUAACGUCGGACUGUGUGAUUGAGCCCAAGAAGUGGAAUUCUCGGGUGCCAA	0.727
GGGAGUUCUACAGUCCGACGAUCUCUCAGCCCCACCCUCACCCUCUGGCCAGGAUCCUACAAGGCUACAUCCCCUGCUGCUUGGUUGACCCCCCCAAAUCCAGGGUCACUGCUCAGCUCUGCUUAUAGCUAUAUGGAAUUCUCGGGUGCCAA	0.409
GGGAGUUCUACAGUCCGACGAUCAGAGUCCUGGCUGCUGUUGCCAUCUGAAUGCGCCCUUCCCUUUCAGGUUGACCAGCAGUGGCCUUACCUGGCCUCUCAGGUGGAUGGAGGCUGUUCUCAUCUGGGGCUGUUGGAAUUCUCGGGUGCCAA	0.457
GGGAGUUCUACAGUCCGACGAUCUUGUCAACUUAAGCGUCUGUUUACCAAAGACCGGGAACAGGGGCCCAAACAUGUCCAGUCCUCUUCUUCCCUCUGCUGGAACCUUUGGGGACACUCAAGGGUACAGUUUGUGGAAUUCUCGGGUGCCAA	0.263
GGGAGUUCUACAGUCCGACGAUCUCCAGACCUUAUCCACAACCCGGGGCUUGGAAAGGAAGGUAUUUUGGAAUCACACCCUCCGGUUAUGUUGCUCCAGUAAAAUCUUGCCUGGAAAGAGGCAGUCUUCUUAGUGGAAUUCUCGGGUGCCAA	0.593

Further values, each from its own experiment
UNK zinc fingers 1-6, GST-SBP tag: RING finger protein unkempt homolog, zinc fingers 1-6, GST-SBP tag (UNK, Homo sapiens, UniProt Q9C0B0, residues 30-357)
UniProt Q9C0B0, sequence (30-357, looked up): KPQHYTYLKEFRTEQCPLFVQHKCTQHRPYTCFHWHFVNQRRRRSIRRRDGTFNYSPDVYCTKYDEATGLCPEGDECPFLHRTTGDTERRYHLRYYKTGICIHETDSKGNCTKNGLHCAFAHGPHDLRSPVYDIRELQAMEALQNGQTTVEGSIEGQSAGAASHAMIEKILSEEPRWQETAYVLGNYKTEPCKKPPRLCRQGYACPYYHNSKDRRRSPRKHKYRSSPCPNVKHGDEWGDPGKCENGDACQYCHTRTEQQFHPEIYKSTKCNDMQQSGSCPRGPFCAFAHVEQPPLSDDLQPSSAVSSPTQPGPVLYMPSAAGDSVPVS
Molecule	target	assay	system	setting	scale	endpoint	result
GGGAGUUCUACAGUCCGACGAUCUAUUUCAUGAAGCCACUGCAUGGUAAAUAUGCAACUUCACGUUUUUCUGUUUUUAACACAUUCCGACCUUGGUUAAAAAUUCCUUUUGUUUAUGAUAAUUGUUUUUGCCAUUUGUAUAUUCAACAGAGGAUUGAGCAUCA	UNK zinc fingers 1-6, GST-SBP tag	RNA Bind-n-Seq	RNA, in vitro	not given, RNA with constant flanks, ends assumed	relative to: input RNA pool, higher = stronger binding	bound/input enrichment	0.169 ratio
PhoQ, residues 284 288 289 292 302 303 NLMGRA	PhoP, residues 12 14 15 18 19 AYFRS (Escherichia coli, UniProt P23836)	Sort-seq, measured: YFP reporter	E. coli	PhoQ-PhoP variant library, added: 10 µM Mg2+	relative to: high Mg2+ state, higher = stronger signaling	fold induction	8.92
GGGAGUUCUACAGUCCGACGAUCUGUGAGCGUCUACAGACAGCUCACCAUUUUUGUCCUGUAUCUGUAAACACUUUUUGUUCUCCGUCUUUUUCUUGUAAAAUUGAUGUUCUUUAAAAUCGUUAAUGUAUAACAGGGCUUAUGCAACAGAGGAUUGAGCAUCA	RING finger protein unkempt homolog, zinc fingers 1-6, SBP tag (UNK, Homo sapiens, UniProt Q9C0B0, residues 30-357)	RNA Bind-n-Seq	RNA, in vitro	100 nM, RNA with constant flanks, ends assumed	relative to: input RNA pool, higher = stronger binding	bound/input enrichment	0.214 ratio
GGGAGUUCUACAGUCCGACGAUCGUGUUGUGACCCAUUUAACAUACACAAGAAGCUAGCCAAAAAGAACCUGCACGUCAUUGACUCCGAUGAUGCCACUUUUCUGAGCGCCAAGUUUGGAAGACAGCUUGUACCUGGUUGGAACAACAGAGGAUUGAGCAUCA	UNK zinc fingers 1-6, GST-SBP tag	RNA Bind-n-Seq	RNA, in vitro	not given, RNA with constant flanks, ends assumed	relative to: input RNA pool, higher = stronger binding	bound/input enrichment	0.29 ratio
GGGAGUUCUACAGUCCGACGAUCCAUAGUGAACGAGAAAUGAGGAACACACUAGAAAAAUUUACUGCAAGCAUCCAGCGUUUAACCGAGCAAGAAGAAUAUUUGAAUGUCCAAGUUAAGGAACUUGAAGCUAAUGUACUUGCUCAACAGAGGAUUGAGCAUCA	UNK zinc fingers 1-6, GST-SBP tag	RNA Bind-n-Seq	RNA, in vitro	not given, RNA with constant flanks, ends assumed	relative to: input RNA pool, higher = stronger binding	bound/input enrichment	0.882 ratio

Some of these lines once more (sample 1):
Strand	E-score
ACGGCGGA	0.365
GGATACGA	0.265
CGGATGGA	0.445
CGGCAGGA	0.303
